Assay results from different studies.
Each numbered part is a random draw from the data of one study; scales do not carry over between parts.

Block 1
Target: PABPC1L2, full length, GST fusion (mouse, UniProt A0ABA7IW68)
Method: RNAcompete
Molecule type: RNA
Sample: in vitro
Concentration: 20 nM
Setting: 7-mer, probes averaged, single round
Reference: mean of 7-mers
Direction: higher = stronger binding
Construct (chain): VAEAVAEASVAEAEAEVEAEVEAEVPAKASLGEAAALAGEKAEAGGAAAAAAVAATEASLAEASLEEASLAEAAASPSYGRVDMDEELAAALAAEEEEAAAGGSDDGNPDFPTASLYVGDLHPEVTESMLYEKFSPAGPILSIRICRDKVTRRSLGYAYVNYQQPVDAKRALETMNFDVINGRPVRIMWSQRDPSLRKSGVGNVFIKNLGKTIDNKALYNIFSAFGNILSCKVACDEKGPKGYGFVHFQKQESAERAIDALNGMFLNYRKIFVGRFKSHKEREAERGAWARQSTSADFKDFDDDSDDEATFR
Strand | 7-mer Z-score
GCGGUAC | 0.0261
UUACUCC | -0.298
CGUUAUU | -0.284
UGCGAUU | -0.179
CAAGAGA | 0.274

Block 2
Target: Prothrombin, mature alpha-thrombin (F2, Homo sapiens, UniProt P00734)
Method: aptamer microarray, sandwich
Molecule type: DNA with 2'F-ANA
Sample: in vitro
Concentration: 200 nM
Setting: whole 15-mer aptamer, many near background
With: Cy3 exosite-II aptamer, 400 nM
Direction: higher = stronger binding
Strand: GGTTGGTGTGGTTGG
Modification | mean fluorescence intensity [a.u.]
2'F-ANA at 1 4 5 6 7 10 12 13 14 15 | 46.3
2'F-ANA at 1 3 4 5 7 8 13 14 15 | 46.7
2'F-ANA at 1 14 15 | 59.2
2'F-ANA at 2 3 4 6 7 9 10 11 13 15 | 208
2'F-ANA at 2 7 12 15 | 852
2'F-ANA at 1 4 5 6 8 9 12 | 132

Block 3
Target: Histone acetyltransferase KAT6A, both winged helices, GST fusion (KAT6A, Homo sapiens, UniProt Q92794, residues 1-181)
Method: protein binding microarray
Molecule type: double-stranded DNA, one strand shown
Sample: in vitro
Concentration: not given
Setting: 8-mer, flanks averaged, mean of 2 arrays, mostly near background
Reference: not given
Direction: higher = stronger binding
Construct (chain): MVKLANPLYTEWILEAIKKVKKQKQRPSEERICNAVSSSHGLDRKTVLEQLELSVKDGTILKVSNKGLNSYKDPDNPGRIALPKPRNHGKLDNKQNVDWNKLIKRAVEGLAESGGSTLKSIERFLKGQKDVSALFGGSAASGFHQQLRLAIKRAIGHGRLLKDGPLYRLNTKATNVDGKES
Strand | E-score
CGTACAAG | 0.0478
TCTAAACA | 0.0156
AGAAAGTG | -0.197
CAGGGACA | -0.126
CACGGTCG | 0.0832
GAGTACGC | 0.0703
AGCAGCAA | -0.0624

Other studies, line by line
Molecule | target | test | system | conditions | scale | measurement | value
PhoQ, residues 284 288 289 292 302 303 TLMATV | PhoP, residues 12 14 15 18 19 IFFTR (Escherichia coli, UniProt P23836) | Sort-seq, refers to: YFP reporter | E. coli | PhoQ-PhoP variant library, with: 10 µM Mg2+ | reference: high Mg2+ state, higher = stronger signaling | fold induction | 1.21
